Measurements from different studies.
Lines come from different studies, so protocols differ.
TDP1: Tyrosyl-DNA phosphodiesterase 1 (TDP1, Homo sapiens, UniProt Q9NUW8)
Sequence of UniProt Q9NUW8 (whole entry, looked up): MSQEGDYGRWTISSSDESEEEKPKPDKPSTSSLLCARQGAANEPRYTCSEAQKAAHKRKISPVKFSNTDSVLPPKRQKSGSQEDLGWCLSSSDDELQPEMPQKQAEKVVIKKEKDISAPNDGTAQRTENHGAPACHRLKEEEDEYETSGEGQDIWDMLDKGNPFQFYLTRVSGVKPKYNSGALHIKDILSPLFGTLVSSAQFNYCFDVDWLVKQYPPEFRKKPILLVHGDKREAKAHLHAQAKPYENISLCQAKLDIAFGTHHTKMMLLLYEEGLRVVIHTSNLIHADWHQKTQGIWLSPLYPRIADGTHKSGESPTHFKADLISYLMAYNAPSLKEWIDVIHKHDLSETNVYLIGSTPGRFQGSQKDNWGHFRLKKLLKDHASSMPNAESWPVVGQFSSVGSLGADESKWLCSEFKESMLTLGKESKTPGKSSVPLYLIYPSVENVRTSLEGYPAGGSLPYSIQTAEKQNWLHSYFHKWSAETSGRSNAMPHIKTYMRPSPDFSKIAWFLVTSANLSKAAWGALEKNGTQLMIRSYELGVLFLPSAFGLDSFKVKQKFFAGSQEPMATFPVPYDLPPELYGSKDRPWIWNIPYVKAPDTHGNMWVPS
T1: RNase P RNA (Methanobrevibacter smithii); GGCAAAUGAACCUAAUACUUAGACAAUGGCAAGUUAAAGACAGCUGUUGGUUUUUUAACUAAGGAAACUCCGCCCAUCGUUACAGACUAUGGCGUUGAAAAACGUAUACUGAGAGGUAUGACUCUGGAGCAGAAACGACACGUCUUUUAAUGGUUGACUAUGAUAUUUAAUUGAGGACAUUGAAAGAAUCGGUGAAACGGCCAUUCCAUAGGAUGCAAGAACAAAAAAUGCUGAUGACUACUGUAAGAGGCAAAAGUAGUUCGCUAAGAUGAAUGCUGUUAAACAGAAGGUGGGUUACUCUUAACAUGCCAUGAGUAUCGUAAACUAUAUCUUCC
T2: dsDNA, duplex; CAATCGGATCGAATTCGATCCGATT
T3: dsDNA, duplex; chain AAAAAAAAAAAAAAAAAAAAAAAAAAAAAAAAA; chain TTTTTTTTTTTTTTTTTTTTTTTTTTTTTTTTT
T4: RNA, base-paired repeat; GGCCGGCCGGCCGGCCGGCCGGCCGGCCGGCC
T5: RNA, abasic bulge, CUG repeat hairpin; GACAGCUGCUGUC
T6: dsDNA, duplex; chain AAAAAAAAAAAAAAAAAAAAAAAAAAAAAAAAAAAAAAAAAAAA; chain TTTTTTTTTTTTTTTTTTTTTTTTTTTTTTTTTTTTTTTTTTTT
T7: RNA, abasic bulge mismatch; chain CUAACGGAAUG; chain CAUUCGGUUAG
T8: DNA aptamer; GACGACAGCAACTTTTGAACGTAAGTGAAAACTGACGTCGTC
T9: dsDNA; chain CTGCACTAGGCACTACCG; chain CGGTAGTGCCTAGTGCAG
T10: DNA aptamer; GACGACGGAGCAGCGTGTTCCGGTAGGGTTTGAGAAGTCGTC
T11: RNA, abasic bulge mismatch; chain CUAAUGGAAUG; chain CAUUUGGUUAG

Compound | target | test | system | setting | endpoint | result
COc1ccccc1[C@]1(O)C[C@H](c2ccc(C)cc2)N[C@H](c2ccc(C)cc2)[C@H]1C | T1, RNase P RNA (Methanobrevibacter smithii) | WaterLOGSY NMR |  |  | binding | binds
CN(C)c1ccc(C2=C/C(=C/C=C/C3=[N+](C)c4ccccc4C3(C)C)c3ccccc3O2)cc1 | T2, dsDNA, duplex | fluorescence turn-on |  |  | binding | binds
CCCCCCCCn1c(CC)c(C)[n+](CCCCCCCC)c1CCC | T3, dsDNA, duplex | thermal melting real-time PCR |  | 0-100 µM, K+ 100 mM | binding | binds
O=C(CN1CCCN(C(=O)CN2CCCN(Cc3cccc4cnccc34)CC2)CC1)NCCNCCNC(=O)CN1CCCN(C(=O)CN2CCCN(Cc3cccc4cnccc34)CC2)CC1 | T4, RNA, base-paired repeat | BLI |  |  | binding | binds weakly
O=C(O)c1ccc(Nc2c(-c3ccccc3)nc3ccc(CON=Cc4ccc(=O)n(Cc5ccc(Cl)c(Cl)c5)c4)cn23)cc1 | TDP1 | enzyme activity, inhibitor |  | 100 µM, unpurified compound | inhibition | 41.6%
NCCN1CCN=C1c1ccc(C(=O)Nc2ccc(C3=NCCN3)cc2)cc1 | T5, RNA, abasic bulge, CUG repeat hairpin | NMR |  | 35 °C | binding | binds
CCCc1n(Cc2ccc(Br)cc2)c2c([n+]1Cc1ccc(Br)cc1)CCCC2 | T6, dsDNA, duplex | competition with EtBr, competitor, EtBr displacement fluorescence |  | Na+ 50 mM, added: EtBr | binding | binds
N#CCOc1ccc(Br)cc1C=NOCc1ccc(-c2nc3cc(-c4ccccc4)ccn3c2Nc2ccc(C(=O)O)cc2)cc1 (mixture of isomers) | TDP1 | enzyme activity, inhibitor |  | 100 µM, unpurified compound | inhibition | 62.3%
CN(C)c1ccc(C2=C/C(=C/C=C/c3sc4ccccc4[n+]3C)c3ccccc3O2)cc1 | T2, dsDNA, duplex | fluorescence turn-on |  |  | binding | no binding
Cc1ccc2ccc(NC(=O)OCCCNCc3ccc(/N=N\c4ccc(CNCCCOC(=O)Nc5ccc6ccc(C)nc6n5)cc4)cc3)nc2n1 | T7, RNA, abasic bulge mismatch | thermal melting |  |  | binding | no binding
Cn1c(=O)c2c(ncn2C)n(C)c1=O | T8, DNA aptamer | competitor, fluorescence displacement |  | added: quinine 100 nM | binding | no binding
N=C(NCCCCNC(=N)NCCCCNc1nc(N)nc(NCCCCNC(=N)NCCCCNC(=N)NCCCCNc2nc(N)nc(NCCCCN)n2)n1)NCCCCNc1nc(N)nc(NCCCCN)n1 | T9, dsDNA | ITC |  |  | binding | binds weakly
Cc1ccc2c(c1)sc(-c1ccc(N(C)C)cc1)[n+]2C | T10, DNA aptamer | ThT fluorescence |  | 500 nM, added: ThT 1 µM | binding | binds
N=C(NCCCCNC(=N)NCCCCNc1nc(N)nc(NCCCCNC(=N)NCCCCNC(=N)NCCCCNc2nc(N)nc(NCCCCNC(=N)NCCCCNC(=N)NCCCCNc3nc(N)nc(NCCCCNC(=N)NCCCCNC(=N)NCCCCNc4nc(N)nc(NCCCCN)n4)n3)n2)n1)NCCCCNc1nc(N)nc(NCCCCN)n1 | T9, dsDNA | ITC |  |  | binding | binds weakly
O=C(CN1CCCN(C(=O)CN2CCCN(Cc3cccc4cnccc34)CC2)CC1)NCCCOCCNCCOCCCNC(=O)CN1CCCN(C(=O)CN2CCCN(Cc3cccc4cnccc34)CC2)CC1 | T4, RNA, base-paired repeat | BLI |  |  | binding | binds weakly
Cc1ccc2ccc(NC(=O)OCCCN(CCCOC(=O)Nc3ccc4ccc(C)nc4n3)Cc3ccc(/N=N\c4ccc(CN(CCCOC(=O)Nc5ccc6ccc(C)nc6n5)CCCOC(=O)Nc5ccc6ccc(C)nc6n5)cc4)cc3)nc2n1 | T11, RNA, abasic bulge mismatch | CD spectra |  | induced CD, irradiated | binding | binds
CC(=O)c1cnc(N)nc1N1CC[C@H]1c1nn2ccc(Cl)c2c(=O)n1-c1ccccc1 | Phosphatidylinositol-4,5-bisphosphate 3-kinase, catalytic subunit gamma (Rattus norvegicus, UniProt D3ZFJ0) | KiNativ | rat whole blood cells | 0.1 µM, 1 h | binding | 26.2%

Some of these lines once more:
Compound | target | test | system | setting | endpoint | result
O=C(O)c1ccc(Nc2c(-c3ccccc3)nc3ccc(CON=Cc4ccc(=O)n(Cc5ccc(Cl)c(Cl)c5)c4)cn23)cc1 | TDP1 | enzyme activity, inhibitor |  | 100 µM, unpurified compound | inhibition | 41.6%
N=C(NCCCCNC(=N)NCCCCNc1nc(N)nc(NCCCCNC(=N)NCCCCNC(=N)NCCCCNc2nc(N)nc(NCCCCNC(=N)NCCCCNC(=N)NCCCCNc3nc(N)nc(NCCCCNC(=N)NCCCCNC(=N)NCCCCNc4nc(N)nc(NCCCCN)n4)n3)n2)n1)NCCCCNc1nc(N)nc(NCCCCN)n1 | T9, dsDNA | ITC |  |  | binding | binds weakly
